Experimental data of several laboratories.
Protocols differ between the studies behind these lines. ± marks the error that the study gave.
Organism: Salmonella typhimurium

Compound | test | system | setting | how to read | quantity | value
CC(=O)N1CCC(C(=O)N2CCN3C(=O)c4cc(-c5ccccc5)ccc4NC(=O)C3C2)CC1 (stereo not drawn) | – | TA1537 | 1.58 µg/plate | relative to: vehicle | fold increase in revertants | 1.1
O=NN1CCN(C2CCCC2)CC1 | mutagenicity, Ames plate incorporation | TA100 | 50 µg/plate, 3 d, without S9, methanol | – | revertant colonies per plate | 134 ± 18
O=[N+]([O-])c1ccc(NC2CCNCC2)c(C(F)(F)F)c1 | SOS/umu test | TA1535/pSK1002 | 0.031 mg/mL, 4 h, with S9, full range | – | survival | 107%
CN(CC(C)(C)C)N=O | mutagenicity, Ames plate incorporation | TA98 | 1500 µg/plate, without S9, methanol | – | revertant colonies per plate | 27.7 ± 7
OC(CCN1CC=C(c2ccc(F)cc2)CC1)c1ccc(F)c2ccccc12 (stereo not drawn) | genotoxicity, SOS/umu test | TA1535/pSK1002 | 0.016 mg/mL, 4 h, with S9, lower range | – | induction factor | 0.6
COc1cccc(-c2n[nH]c(SCc3ccccn3)n2)c1OC | Ames test, preincubation | TA100 | 1.0 mg/plate, without S9 | – | revertant colonies per plate | 104
CC(C)N(C)N=O | mutagenicity, Ames plate incorporation | TA98 | 500 µg/plate, 3 d, without S9, methanol | – | revertant colonies per plate | 25.3 ± 5
Fc1ccc(C2=CCNCC2)cc1 | genotoxicity, SOS/umu test | TA1535/pSK1002 | 0.031 mg/mL, 4 h, without S9, full range | – | induction factor | 0.8
Cc1cc(C(=O)NC(C)(C)COc2cccc3c2C(N)=NS(=O)(=O)N3)cc(C)n1 | Ames test, initial | TA98 | 5.00 µg/plate | relative to: solvent control | revertant ratio | 1.2
N#C[C@@]1(n2ccc(N)nc2=O)O[C@H](CO)[C@@H](O)[C@H]1O | – | TA100 | 100 µM, without S9 | relative to: control | viability | 87%
O=[N+]([O-])c1ccc(N2CCN(CCC(O)c3ccc(F)cc3)CC2)c(C(F)(F)F)c1 (stereo not drawn) | SOS/umu test | TA1535/pSK1002 | 0.125 mg/mL, 4 h, without S9, lower range | – | survival | 57%
CNC(=O)c1c(N(C)N=O)ncn1C | plate incorporation | TA1537, water | 2500 µg/plate, without S9 | – | revertant colonies per plate | 9.7 ± 2

A few entries again:
Compound | test | system | setting | how to read | quantity | value
COc1cccc(-c2n[nH]c(SCc3ccccn3)n2)c1OC | Ames test, preincubation | TA100 | 1.0 mg/plate, without S9 | – | revertant colonies per plate | 104
